Measurements pooled from the literature.
A part holds a random share of what one study measured. Values joined by “and” are separate records of one study, mostly repeats; a detail may differ.

Sample 1
SMILES: COCC1CC2C(CCC3(C)C(O)CCC23)c2ccc(O)cc21 (stereo not shown)
Technique: DNA microarray
Reference: untreated cells
Measurement: log2 fold change
A549; item: GDF15; concentration not given: 2.74
PANC-1; item: ACTA2; concentration not given, lower dose arm: -0.366
A549; item: MCM6; 100 µM: -0.569
A549; item: OLIG2; 100 µM: 5.3
PANC-1; item: IL20RA; concentration not given: 3.16
PANC-1; item: TMEM108; concentration not given, higher dose arm: 0
A549; item: CDC25B; 50 µM: 0.258
SK-OV-3; item: AURKA; concentration not given, lower dose arm: -0.198
PANC-1; item: ADAMTS8; concentration not given, lower dose arm: 0
A549; item: MCM6; 50 µM: -0.21
A549; item: TMEM108; concentration not given: 4.18
A549; item: CDCA8; concentration not given: -0.97

Sample 2
SMILES: CCN1/C(=C/C=C2\CCCC(/C=C/C3=[N+](CC)c4ccccc4C3(C)C)=C2NCCCCCCCCN2CCC(Nc3nc4ccccc4n3Cc3ccc(F)cc3)CC2)C(C)(C)c2ccccc21
Cell line: U-87 MG
Concentration: concentration not given
Reference: DMSO
Measurement: log2 fold change
item: TMEM232 mRNA: 1.59
item: SLC16A5 mRNA: -3.77
item: CIT mRNA: -1.84
item: DNAJB1 mRNA: 2.3
item: FOSL2 mRNA: -0.941
item: SMOX mRNA: 0.952
item: RGPD6 mRNA: 0.938
item: USP18 mRNA: -2.74
item: PPP1R14C mRNA: 1.47
item: CCN1 mRNA: -1.95
item: KCTD3 mRNA: -1.08
item: NIPAL4 mRNA: 1.56
item: DSN1 mRNA: -1.21
item: OLFML3 mRNA: -2.32
item: TMEM158 mRNA: -1.13
item: FAM13C mRNA: -1.74

Sample 3
Cell line: HCC1569
Technique: in-cell western
Item: CDK1 phospho-Thr14
Concentration: 41.15 nM
Measurement: pCDK1 (Thr14) level
Cc1ccc(O)c(C)c1-c1cnc2[nH]c(-c3cnc(N4CCC(CCN5CCN(c6ccc(N7CCC(=O)NC7=O)cc6F)CC5)CC4)nc3)cc2c1C#N: 15.6 RLU and 18.1 RLU
Cc1ccc(O)c(C)c1-c1cnc2[nH]c(-c3cnc(N)nc3)cc2c1C#N: 31.4% and 40.6%
Cc1ccc(O)c(C)c1-c1cnc2[nH]c(-c3cnc(N4CCC5(CC4)CC(CN4CCN(c6ccc(NC7CCC(=O)NC7=O)cc6F)CC4)C5)nc3)cc2c1C#N (stereo not shown): 23.5 RLU and 33.5 RLU
Cc1ccc(O)c(C)c1-c1cnc2[nH]c(-c3cnc(N4CCC(CN5CCN(c6ccc7c(c6)CN(C6CCC(=O)NC6=O)C7=O)CC5)CC4)nc3)cc2c1C#N (stereo not shown): 39.9 RLU and 42.2 RLU
Cc1ccc(O)c(C)c1-c1cnc2[nH]c(-c3cnc(N4CCC(CN5CCN(c6ccc7c(c6F)CN(C6CCC(=O)NC6=O)C7=O)CC5)CC4)nc3)cc2c1C#N (stereo not shown): 1.42 RLU and 14.7 RLU

Sample 4
SMILES: Cc1ncsc1-c1ccc(C(CO)NC(=O)C2CC(O)CN2C(=O)C(C(C)C)n2cc(-c3ccc(COc4c(-c5c(C)c(F)cc6[nH]ncc56)c(C5CC5)cc5c(N6CC7CC6CN7)nc(OC6CCOCC6)nc45)cc3)nn2)cc1 (stereo not shown)
Measurement: IC50
PK-59; cell growth or viability, ATP luminescence: 16.9 nM
AsPC-1; In-Cell ELISA, item: phospho-ERK1/2: 14.7 nM and 15.9 nM and 10.7 nM
HPAC; cell growth or viability, ATP luminescence: 14 nM
AsPC-1 KRAS G12D; ERK1/2 phosphorylation, inhibitor, In-Cell ELISA; overall of experiments: 13.6 nM
NCI-H358; cell growth or viability, ATP luminescence: 136 nM
LCLC-97TM1; cell growth or viability, ATP luminescence: 1160 nM
PSN1; cell growth or viability, ATP luminescence: 7640 nM
SK-CO-1; cell growth or viability, ATP luminescence: 161 nM

Sample 5
Cell line: MDA-MB-231
Observed: cell viability
Technique: CellCounting-Lite
Concentration: 2.743 nM
Temperature: 37 °C
Reading: higher = more viable cells
Measurement: luminescence signal
CCn1cnc2c(NCc3nc4ccc(F)c(F)c4[nH]3)nc(N3CCn4ncnc4C3)nc21: 506000 a.u. and 522000 a.u. and 518000 a.u.
CC(=O)N1CCN(c2nc(NCc3nc4cc(Cl)c(Cl)cc4[nH]3)c3ncn(C(C)C)c3n2)CC1: 511000 a.u. and 490000 a.u. and 507000 a.u.
CCCCOc1nc(NCc2nc3cc(Cl)c(Cl)cc3[nH]2)c2ncn(CC)c2n1: 457000 a.u. and 556000 a.u. and 647000 a.u.
CCn1cnc2c(NCc3nc4cc(Cl)c(Cl)cc4[nH]3)nc(N3CCC(NC(C)=O)CC3)nc21: 452000 a.u. and 485000 a.u. and 514000 a.u.
CCn1cnc2c(NCc3nc4cc(Cl)c(Cl)cc4[nH]3)nc(N3CCN(c4ccccn4)CC3)nc21: 583000 a.u. and 626000 a.u. and 581000 a.u.
CC(=O)N1CCN(c2nc(NCc3nc4cc(Cl)c(Cl)cc4[nH]3)c3ncn(C)c3n2)CC1: 328000 a.u. and 474000 a.u. and 456000 a.u.
CCn1cnc2c(NCc3nc4cc(Cl)c(Cl)cc4[nH]3)nc(N3CCN(C(C)=O)CC3)nc21: 452000 a.u. and 460000 a.u. and 390000 a.u.
Cn1cc(-n2cnc3c(NCc4nc5cc(Cl)c(Cl)cc5[nH]4)nc(N4CCNCC4)nc32)cn1: 485000 a.u. and 502000 a.u.
CCn1cnc2c(NCc3nc4cc(Cl)c(Cl)cc4[nH]3)nc(N3CCN(S(C)(=O)=O)CC3)nc21: 466000 a.u. and 429000 a.u. and 493000 a.u.
CCn1cnc2c(NCc3nc4cc(Cl)c(Cl)cc4[nH]3)nc(N3CCN(C(=O)c4ccncc4)CC3)nc21: 485000 a.u. and 509000 a.u. and 385000 a.u.
CCn1cnc2c(NCc3nc4cc(Cl)c(Cl)cc4[nH]3)nc(N3CCN(Cc4ccncc4)CC3)nc21: 479000 a.u. and 472000 a.u. and 425000 a.u.
CCn1cnc2c(NCc3nc4cc(Cl)c(Cl)cc4[nH]3)nc(N3CCN(C(=O)c4ccccc4)CC3)nc21: 493000 a.u. and 509000 a.u. and 430000 a.u.
CCn1cnc2c(NCc3nc4cc(Cl)c(Cl)cc4[nH]3)nc(N3CCN(C(=O)c4ccccn4)CC3)nc21: 376000 a.u. and 352000 a.u. and 374000 a.u.
CCn1cnc2c(NCc3nc4cc(Cl)c(Cl)cc4[nH]3)nc(N3CCn4ncnc4C3)nc21: 520000 a.u. and 534000 a.u. and 423000 a.u.
CCn1cnc2c(NCc3nc4cc(Cl)c(Cl)cc4[nH]3)nc(N3CCN(C(=O)CNC(C)=O)CC3)nc21: 521000 a.u. and 500000 a.u. and 515000 a.u.
CCn1cnc2c(NCc3nc4cc(Cl)c(Cl)cc4[nH]3)nc(N3CCN(C(=O)c4cccnc4)CC3)nc21: 399000 a.u. and 395000 a.u. and 362000 a.u.
CCn1cnc2c(NCc3nc4cc(Cl)c(Cl)cc4[nH]3)nc(N3CCN(C(=O)[C@H](C)NC(C)=O)CC3)nc21: 495000 a.u. and 439000 a.u. and 452000 a.u.
CC(=O)N1CCN(c2nc(NCc3nc4cc(Cl)c(Cl)cc4[nH]3)c3ncn(-c4cnn(C)c4)c3n2)CC1: 513000 a.u. and 545000 a.u. and 538000 a.u.

Sample 6
Organism: Arabidopsis thaliana
Strain: Col-0
Concentration: 3.125 µg/mL
Notes: seed germination, single repetition
Measurement: hypocotyl length
COc1ccc2c(c1)OC(O)(C(=O)O)C(=O)N2Cc1ccccc1 (stereo not shown): 1.88 cm and 2.01 cm and 2.03 cm and 1.99 cm and 1.9 cm
CC(C)=CCN1C(=O)C(O)(C(=O)O)Oc2cc(F)ccc21 (stereo not shown): 2.1 cm and 2.13 cm and 2.16 cm and 2.15 cm and 2.11 cm
O=C(O)C1(O)Oc2cc(Br)ccc2N(Cc2ccccc2)C1=O (stereo not shown): 2.15 cm and 2.14 cm and 2.1 cm and 2.09 cm
O=C(O)C1(O)Oc2ccccc2N(Cc2ccccc2)C1=O (stereo not shown): 1.9 cm and 2.03 cm and 1.88 cm and 1.91 cm
O=C(O)C1(O)Oc2cc(Cl)ccc2N(Cc2ccccc2)C1=O (stereo not shown): 2.11 cm and 2.13 cm and 2.1 cm and 2.12 cm and 2.07 cm

Sample 7
SMILES: C[C@@H]1CN(c2ccc(-c3cc(C(=O)NCCOCCOCCOCCOCCNC(=O)Cn4cc(-c5[nH]cc(C(=O)N[C@@H](CC(N)=O)c6ccc(F)c(Cl)c6)c5-c5ccc(Cl)cc5F)cn4)ccc3F)cc2NC(=O)c2c[nH]c(=O)cc2C(F)(F)F)C[C@H](C)N1C
Observed: thermal unfolding
Technique: differential scanning fluorimetry
Concentration: 5.5 µM
Reading: higher = more unfolded
Measurement: SYPRO Orange fluorescence
WDR5: WD repeat-containing protein 5 (WDR5, Homo sapiens, UniProt P61964)
DCAF1: DDB1- and CUL4-associated factor 1 (DCAF1, Homo sapiens, UniProt Q9Y4B6)
Sequence of UniProt Q9Y4B6 (whole entry, looked up): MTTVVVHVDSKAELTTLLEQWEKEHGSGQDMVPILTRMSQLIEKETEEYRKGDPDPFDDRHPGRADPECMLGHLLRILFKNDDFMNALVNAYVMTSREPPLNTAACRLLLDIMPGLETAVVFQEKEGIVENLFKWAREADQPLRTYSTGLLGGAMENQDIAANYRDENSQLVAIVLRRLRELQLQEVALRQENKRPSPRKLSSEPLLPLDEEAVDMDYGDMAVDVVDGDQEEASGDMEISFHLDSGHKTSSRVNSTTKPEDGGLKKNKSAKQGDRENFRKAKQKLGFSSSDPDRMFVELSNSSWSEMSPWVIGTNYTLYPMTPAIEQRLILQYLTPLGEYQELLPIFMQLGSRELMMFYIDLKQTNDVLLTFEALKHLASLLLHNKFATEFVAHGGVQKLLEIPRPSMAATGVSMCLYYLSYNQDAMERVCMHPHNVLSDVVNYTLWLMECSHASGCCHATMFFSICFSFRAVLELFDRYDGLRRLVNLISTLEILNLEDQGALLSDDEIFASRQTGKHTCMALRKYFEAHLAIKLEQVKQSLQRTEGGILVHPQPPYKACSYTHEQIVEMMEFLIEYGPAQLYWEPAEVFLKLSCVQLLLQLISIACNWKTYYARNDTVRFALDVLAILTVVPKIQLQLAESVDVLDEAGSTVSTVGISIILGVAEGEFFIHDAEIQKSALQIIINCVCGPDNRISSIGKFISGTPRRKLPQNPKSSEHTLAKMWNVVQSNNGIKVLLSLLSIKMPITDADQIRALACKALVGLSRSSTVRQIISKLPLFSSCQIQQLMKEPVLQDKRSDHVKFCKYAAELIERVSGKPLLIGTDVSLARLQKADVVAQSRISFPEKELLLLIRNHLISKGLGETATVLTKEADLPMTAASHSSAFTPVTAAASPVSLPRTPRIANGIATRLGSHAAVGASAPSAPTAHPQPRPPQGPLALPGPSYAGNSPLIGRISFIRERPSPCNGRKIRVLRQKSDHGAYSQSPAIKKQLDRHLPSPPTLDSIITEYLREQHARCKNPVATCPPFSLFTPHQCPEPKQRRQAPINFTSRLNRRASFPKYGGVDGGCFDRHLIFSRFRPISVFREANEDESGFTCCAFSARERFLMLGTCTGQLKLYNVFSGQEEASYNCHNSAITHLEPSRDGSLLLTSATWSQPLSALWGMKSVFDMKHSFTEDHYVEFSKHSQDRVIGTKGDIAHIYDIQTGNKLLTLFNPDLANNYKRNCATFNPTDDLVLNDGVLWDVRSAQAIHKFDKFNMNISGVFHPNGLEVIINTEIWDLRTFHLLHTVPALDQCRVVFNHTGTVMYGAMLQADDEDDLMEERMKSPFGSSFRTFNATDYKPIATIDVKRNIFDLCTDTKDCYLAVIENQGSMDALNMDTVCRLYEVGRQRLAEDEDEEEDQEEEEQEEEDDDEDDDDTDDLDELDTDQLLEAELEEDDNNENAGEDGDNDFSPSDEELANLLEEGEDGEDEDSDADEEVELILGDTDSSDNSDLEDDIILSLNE
WDR5; 79.01 °C: 20200 a.u.
WDR5; 30.6 °C: 15000 a.u.
DCAF1; 34.4 °C: 8670 a.u.
WDR5; 42.8 °C: 14300 a.u.
DCAF1; 69.61 °C: 54800 a.u.
DCAF1; 44.2 °C: 11900 a.u.
WDR5; 40.2 °C: 14200 a.u.
DCAF1; 89.81 °C: 35300 a.u.
WDR5; 77.21 °C: 15200 a.u.
DCAF1; 83.41 °C: 41300 a.u.
WDR5; 92.61 °C: 40800 a.u.

Mixed results
CC[C@@]1(c2cccc(C(F)(F)F)c2)C2=C(Nc3n[nH]cc31)[C@H](F)C(C)(C)CC2=O (single isomer, unassigned)
fraction unbound (human plasma): 0.0197

Excerpt of the above (sample 5):
CCn1cnc2c(NCc3nc4cc(Cl)c(Cl)cc4[nH]3)nc(N3CCC(NC(C)=O)CC3)nc21: 452000 a.u. and 485000 a.u. and 514000 a.u.
CCn1cnc2c(NCc3nc4cc(Cl)c(Cl)cc4[nH]3)nc(N3CCN(C(=O)c4cccnc4)CC3)nc21: 399000 a.u. and 395000 a.u. and 362000 a.u.
CCn1cnc2c(NCc3nc4cc(Cl)c(Cl)cc4[nH]3)nc(N3CCN(C(C)=O)CC3)nc21: 452000 a.u. and 460000 a.u. and 390000 a.u.
CCn1cnc2c(NCc3nc4cc(Cl)c(Cl)cc4[nH]3)nc(N3CCN(S(C)(=O)=O)CC3)nc21: 466000 a.u. and 429000 a.u. and 493000 a.u.
Cn1cc(-n2cnc3c(NCc4nc5cc(Cl)c(Cl)cc5[nH]4)nc(N4CCNCC4)nc32)cn1: 485000 a.u. and 502000 a.u.
CC(=O)N1CCN(c2nc(NCc3nc4cc(Cl)c(Cl)cc4[nH]3)c3ncn(C)c3n2)CC1: 328000 a.u. and 474000 a.u. and 456000 a.u.
CCn1cnc2c(NCc3nc4cc(Cl)c(Cl)cc4[nH]3)nc(N3CCN(Cc4ccncc4)CC3)nc21: 479000 a.u. and 472000 a.u. and 425000 a.u.
